Experimental data from different studies.
Values joined by “and” are separate records of one study, mostly repeats; a detail may differ. ± gives the spread as reported.
UniProt Q9H093, sequence (whole entry, looked up): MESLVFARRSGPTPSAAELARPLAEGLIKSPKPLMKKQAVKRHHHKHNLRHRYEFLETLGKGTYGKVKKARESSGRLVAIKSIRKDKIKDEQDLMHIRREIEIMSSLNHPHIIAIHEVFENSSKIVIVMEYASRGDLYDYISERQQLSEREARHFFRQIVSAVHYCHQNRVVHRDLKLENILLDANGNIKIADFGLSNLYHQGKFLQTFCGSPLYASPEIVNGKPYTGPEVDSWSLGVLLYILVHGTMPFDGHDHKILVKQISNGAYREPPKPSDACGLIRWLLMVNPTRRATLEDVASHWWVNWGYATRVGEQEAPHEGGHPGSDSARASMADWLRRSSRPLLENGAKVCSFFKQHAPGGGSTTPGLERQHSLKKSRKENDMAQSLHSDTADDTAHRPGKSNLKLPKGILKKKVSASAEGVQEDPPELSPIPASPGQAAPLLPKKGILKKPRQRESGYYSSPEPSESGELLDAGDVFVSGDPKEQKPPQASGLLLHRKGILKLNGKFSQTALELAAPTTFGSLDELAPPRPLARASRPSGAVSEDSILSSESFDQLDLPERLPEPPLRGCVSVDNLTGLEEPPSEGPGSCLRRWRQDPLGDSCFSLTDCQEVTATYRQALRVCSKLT
UniProt P10635, sequence (whole entry, looked up): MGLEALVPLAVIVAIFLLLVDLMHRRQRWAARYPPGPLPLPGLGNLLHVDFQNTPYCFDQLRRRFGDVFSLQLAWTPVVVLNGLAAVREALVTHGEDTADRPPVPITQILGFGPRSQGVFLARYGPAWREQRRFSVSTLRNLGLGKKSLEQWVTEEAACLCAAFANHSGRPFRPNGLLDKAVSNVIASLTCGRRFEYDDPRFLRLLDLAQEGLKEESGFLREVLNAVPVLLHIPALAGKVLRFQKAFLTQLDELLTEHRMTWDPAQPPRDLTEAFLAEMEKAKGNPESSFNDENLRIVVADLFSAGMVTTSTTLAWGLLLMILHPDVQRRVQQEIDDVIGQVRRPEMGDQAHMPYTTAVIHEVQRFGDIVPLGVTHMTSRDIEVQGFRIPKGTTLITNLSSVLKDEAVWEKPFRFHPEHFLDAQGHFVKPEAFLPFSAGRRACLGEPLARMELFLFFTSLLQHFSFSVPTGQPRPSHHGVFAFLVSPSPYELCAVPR
UniProt Q9HCG7, sequence (whole entry, looked up): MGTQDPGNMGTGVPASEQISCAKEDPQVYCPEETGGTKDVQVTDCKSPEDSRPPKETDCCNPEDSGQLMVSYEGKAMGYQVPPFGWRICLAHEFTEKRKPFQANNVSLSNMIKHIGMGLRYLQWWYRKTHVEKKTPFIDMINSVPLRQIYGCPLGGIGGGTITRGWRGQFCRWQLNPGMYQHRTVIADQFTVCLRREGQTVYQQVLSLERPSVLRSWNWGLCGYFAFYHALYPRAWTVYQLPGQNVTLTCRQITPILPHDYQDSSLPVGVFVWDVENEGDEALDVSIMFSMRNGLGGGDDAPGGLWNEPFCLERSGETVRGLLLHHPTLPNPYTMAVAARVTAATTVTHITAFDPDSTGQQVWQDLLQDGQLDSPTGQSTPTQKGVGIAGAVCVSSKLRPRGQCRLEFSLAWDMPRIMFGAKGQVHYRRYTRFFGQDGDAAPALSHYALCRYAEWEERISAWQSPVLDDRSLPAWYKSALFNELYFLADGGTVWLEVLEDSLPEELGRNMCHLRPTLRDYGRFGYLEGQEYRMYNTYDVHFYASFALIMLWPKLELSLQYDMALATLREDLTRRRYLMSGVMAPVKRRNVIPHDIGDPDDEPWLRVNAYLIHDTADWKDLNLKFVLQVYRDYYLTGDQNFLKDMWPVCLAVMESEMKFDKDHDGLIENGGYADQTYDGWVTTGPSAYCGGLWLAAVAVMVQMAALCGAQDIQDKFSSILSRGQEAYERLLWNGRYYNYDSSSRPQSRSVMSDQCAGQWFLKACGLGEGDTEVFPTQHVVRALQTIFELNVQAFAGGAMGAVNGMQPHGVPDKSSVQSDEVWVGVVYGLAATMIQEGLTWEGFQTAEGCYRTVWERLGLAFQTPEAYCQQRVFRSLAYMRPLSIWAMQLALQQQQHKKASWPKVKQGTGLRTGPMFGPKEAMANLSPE
UniProt O75914, sequence (whole entry, looked up): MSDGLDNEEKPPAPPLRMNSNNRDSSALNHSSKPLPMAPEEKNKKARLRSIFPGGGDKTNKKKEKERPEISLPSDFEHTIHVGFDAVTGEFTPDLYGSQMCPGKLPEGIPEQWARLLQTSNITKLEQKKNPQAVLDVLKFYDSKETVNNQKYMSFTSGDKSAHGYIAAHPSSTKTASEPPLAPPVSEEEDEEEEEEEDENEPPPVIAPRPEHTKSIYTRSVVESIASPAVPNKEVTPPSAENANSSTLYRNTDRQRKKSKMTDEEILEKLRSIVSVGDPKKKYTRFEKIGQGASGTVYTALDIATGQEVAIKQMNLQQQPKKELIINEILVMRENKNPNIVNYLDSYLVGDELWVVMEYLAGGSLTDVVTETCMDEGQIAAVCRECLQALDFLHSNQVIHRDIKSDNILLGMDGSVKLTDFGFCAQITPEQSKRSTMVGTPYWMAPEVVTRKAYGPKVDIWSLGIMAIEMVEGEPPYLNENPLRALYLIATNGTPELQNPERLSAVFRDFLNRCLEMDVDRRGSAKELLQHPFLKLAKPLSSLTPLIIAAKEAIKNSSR

SMILES	tested on	assay	system	setting	scale	endpoint	result
CNC(=O)CCN(Cc1ccc(C(F)F)cc1)C(=O)c1cc2c(OC)ccc(-c3ccc(=O)n(C)c3)c2s1	murine AML cells	BRD4 chromatin occupancy, ChIP-seq, refers to: Ift57 locus		concentration not given	reference: DMSO	log2 fold change	-3.23
COc1cc(N2CCN(C(=O)C3CCCN3)CC2)ccc1Nc1ncc(Cl)c(Nc2ccccc2P(C)(C)=O)n1 (centres unmarked)	Ba/F3 EML4-ALK	annexin V flow cytometry		concentration not given, 1 h		late apoptotic cells	3.1%
CCCC(CCC)C(=O)OCc1cn(-c2cc3ccccc3oc2=O)nn1	UO-31	NCI60 single-dose screen		10 µM		growth percentage	91.9%
CCN(CC)CC(=O)Nc1cccc(-n2cc(-c3ccc4ccc(-c5cn(-c6cccc(NC(=O)CN(CC)CC)c6)nn5)cc4c3)nn2)c1	RCC4	PCR angiogenesis array, refers to: ANG		5 x IC50, 6 h, normoxia	reference: untreated	fold regulation	-1.58
CC(=O)Oc1ccccc1C(=O)[Se]CC(=O)Nc1cccc(C(F)(F)F)c1	NCI60 colon subpanel	NCI60 five-dose screen				GI50	4.34 µM
CCn1nc(Cl)c2c1-c1cnc(N)c(c1)O[C@H](C)c1cc(F)ccc1-c1nn(C)cc1C2	Ba/F3 TPM3-TRKA	cell viability				IC50	0.181 µM
Cc1nn(-c2cccc(N)c2)c(=O)c2cnc(Nc3ccc(N4CCNCC4)cc3)nc12	PAK3 (Homo sapiens, UniProt O75914)	enzyme activity, inhibitor				IC50	3.74 µM
CC(C)C[C@H](NC(=O)[C@H](Cc1ccc(O)cc1)NC(=O)[C@@H](CCCNC(=N)N)NC(=O)[C@@H](CO)NC(=O)[C@H](Cc1ccccc1)NC(=O)[C@H](CC1CCCCC1)NC(=O)[C@H](CC(=O)O)NC(=O)CN1CCN(CC(=O)O)CCN(CC(=O)O)CCN(CC(=O)O)CC1)C(=O)N[C@@H](Cc1c[nH]c2ccccc12)C(=O)N[C@@H](CO)C(=O)O [copper-64 labelled]			human, adrenal	concentration not given, 3 h		activity concentration	2690 Bq/mL and 2510 Bq/mL and 2800 Bq/mL and 1560 Bq/mL and 2000 Bq/mL and 3550 Bq/mL
Nc1ncc(-c2cc(-c3cnn(CC(F)(F)F)c3)ncc2F)nc1C(=O)NC1CNCC(F)C1 (centres unmarked)	MAP3K3	KINOMEscan		1 µM	reference: DMSO control	remaining binding	100%
CN1CCCNC(=O)c2cccc(c2)C(=O)NCCCN(C)CCCNc2cccc3c2C(=O)c2cccc(c2C3=O)NCCC1	SAS	RNA-Seq, refers to: SMG5 mRNA		1 µM, 6 h	reference: untreated cells	log2 fold change	-0.597
CNS(=O)(=O)Nc1nccc(Cc2c(C)c3ccc(Oc4ncccc4F)cc3oc2=O)c1F	HSC-3	cell viability		7 days		IC50	> 1 µM
CCn1nccc1C1CCCN1S(=O)(=O)c1cc(C)c(C)cc1C (centres unmarked)	human monocytes	phagocytosis of anti-D RBCs		5 µM, lab-synthesized sample		inhibition	33.3 ± 6.4%
COC1CN([C@H]2CC[C@H]([C@@]3(C)Oc4c(Cl)cc(C(=O)NCc5c(SC)cc(C)[nH]c5=O)c(C)c4O3)CC2)C1		RNA-seq, refers to: CAVIN1 mouse homolog	mouse, HT-1376 xenograft, whole blood	dose not given	reference: vehicle	log2 fold change	0.541
Cc1c2ccnc(C(=O)N[C@H](C)CN(C)C)c2cc2c3cc(OCCCN4CCN(C)CC4)ccc3n(C)c12	patient-derived LCL	electrochemiluminescent immunoassay		concentration not given, outcome decreased, dose-dependent		poly(GP) level	decreased
Cn1ncc2cc(-c3cncc(Cl)c3N3CCC4(CCNC4=O)CC3)ccc21	LS174T	gene expression, microarray, refers to: INHBB mRNA		concentration not given, 4 h	reference: untreated cells	log2 fold change	1.67
CCNc1cc2c(cc1C)C1(c3cc(C)c(NCC)cc3O2)c2ccccc2C(=O)N1N=Cc1c[c-]c(-c2ccccn2)cc1.Cc1c(C)c(-c2ccc(-c3ccccc3)cc2)[c-](C)c1C.[Cl-].[Ir+3]	A549	PI flow cytometry		2 x IC50, 24 h		G2/M phase cells	11.2 ± 1.3%
CC(C)c1ccc(N(C)c2ccc3c(c2)OCC[C@H]3CNc2cnccc2C(=O)O)cc1	KNS-62	cell growth or viability, ATP luminescence		7 days		IC50	0.0149 µM
COc1ccc(NC(=O)c2ccc3[nH]c(-c4ccc(N(C)C)cc4)nc3c2)cn1	HCT-116	refers to: CXCL8-luc luciferase reporter		concentration not given, unit not given	reference: DMSO	reporter activity	12.5
COC(=O)c1cc(NC2=NC(=O)C(=Cc3ccc(N(C)C)cc3)S2)ccc1OC(C)=O	MCF7	refers to: UBE2N mRNA		0.81 µM (IC50), 24 h	reference: DMSO	fold change	0.369
N#Cc1cccc(/C=C/C(=O)c2ccc(O)cc2)c1	U-87 MG	refers to: SLC7A11		concentration not given	reference: untreated	fold change	40.2
CNC(=O)C1CCCN(C(=O)C2CC3CCC2N3C(=O)[C@@H]2C[C@@H](O)CN2C(=O)NCc2cccc(Cl)c2F)C1 (mixture of isomers)	Cytochrome P450 2D6 (CYP2D6, Homo sapiens, UniProt P10635)	enzyme activity, inhibitor	human, liver microsomes			IC50	> 50 µM
Cn1ncc(-c2ccc3c(=O)[nH]nc(CN)c3c2)c1-c1c(F)c(Cl)cc(OC2CC2)c1C#N	CMK	cell viability, inhibitor, CellTiter-Glo		120 h, baseline-subtracted		IC50	0.06 µM
CC(C)(O)c1ccn2c(-c3ccc(F)c(-c4ccc(F)cc4C#N)c3)cnc2c1F	hiPSC-derived GABAergic neurons α1 G251D	surface immunofluorescence, refers to: GABAA α1, β2/β3, γ2 subunits		5 µM, 24 h, with: hispidulin 10 µM		surface fluorescence intensity	increased
Cc1ccc([N+](=O)[O-])cc1S(=O)(=O)N(C)/N=C/c1cnc2ccc(Br)cn12	NCI60	cytotoxicity, MTS				IC50	0.008 µM

SMILES	tested on	assay	system	setting	scale	endpoint	result
CCCC[C@H](NC(=O)CCCCCCCNC(=O)CN1CCN(CC(=O)O)CCN(CC(=O)O)CC1)C(=O)N[C@H]1CC(=O)NCCCC[C@@H](C(N)=O)NC(=O)[C@H](Cc2c[nH]c3ccccc23)NC(=O)[C@H](CCCNC(=N)N)NC(=O)[C@@H](Cc2ccccc2)NC(=O)[C@H](Cc2c[nH]cn2)NC1=O [technetium-99m labelled]			C57 mouse, pancreas	intravenous, 0.037 MBq, 24 h		tissue uptake	0.04 ± 0.03 %ID/g
C=CC(=O)N1CCCC(n2c(=O)c3ncccc3n(Cc3ccc(Oc4ccccc4)cc3)c2=O)C1 (centres unmarked)	Rec1	refers to: LBH		concentration not given	reference: untreated	log2 fold change	0.345
Cc1ncsc1-c1ccc(C(C)NC(=O)C2CC(O)CN2C(=O)C(NC(=O)CCCCCCCCCCN2CCCC(Nc3ncc(Cl)c(Nc4ccccc4S(=O)(=O)C(C)C)n3)C2)C(C)(C)C)cc1 (centres unmarked)	22Rv1	RNA-seq, refers to: TRIM66 mRNA		concentration not given	reference: DMSO	log2 fold change	-1.38
CC(C)C[C@H](NC(=O)[C@@H](CCCCNC(=O)[C@@H](Cc1ccccc1)NC(=O)CCCCCNC(=O)CN1CCN(CC(=O)O)CCN(CC(=O)O)CCN(CC(=O)O)CC1)NC(=O)[C@H](Cc1ccc(O)cc1)NC(=O)[C@H](CO)NC(=O)[C@H](Cc1c[nH]c2ccccc12)NC(=O)[C@H](Cc1c[nH]cn1)NC(=O)[C@@H]1CCC(=O)N1)C(=O)N[C@@H](CCCNC(=N)N)C(=O)N1CCC[C@H]1C(=O)NCC(N)=O [indium-111 labelled]			female athymic nude mice, pancreas	intravenous, 0.037 MBq, 4 h		tissue uptake	0.01 ± 0.01 %ID/g
O=C(C[Se]C(=O)c1cc2ccccc2[nH]1)Nc1cccc(C(F)(F)F)c1	NCI60 colon subpanel	NCI60 five-dose screen				GI50	2.55 µM
COc1cc(/C=C/C(=O)/C=C(O)/C=C/c2ccc(OCC(=O)N3CCOCCOCCOCC3)c(OC)c2)ccc1OCC(=O)N1CCOCCOCCOCC1	SK-LU-1	cell growth or viability, SRB		25 µM		inhibition	81.5%
C=C(NC(=O)c1csc(-c2nc3c(cc2O)-c2nc(cs2)C(=O)NC(C(C)O)C(=O)NC(=C(C)OC)c2nc(cs2)C(=O)NC2c4nc(cs4)C(=O)NC(COC(=O)c4c5c6c(cccc6n4O)COC(=O)C(OC4CC(C)(O)C(N(C)C)C(C)O4)C2OC5)c2nc-3cs2)n1)C(N)=O (centres unmarked)			female cynomolgus monkey, plasma	intravenous, 1 mg/kg, single dose, infusion		AUC(0-inf)	7.94 µg·h/mL
COc1ccc2c(c1)c(CC(=O)[Se]CC(=O)Nc1cccc(C(F)(F)F)c1)c(C)n2C(=O)c1ccc(Cl)cc1	NCI60 colon subpanel	NCI60 five-dose screen				mean TGI	12.3 µM
C=CC(=O)Nc1cccc(Cn2ncc3cnc(Nc4cnn(CCOC)c4)nc32)c1	NEK4 human	binding, KINOMEscan		100 nM	lower = stronger binding	percent of control	100%
CC(C)n1nc(C(F)F)cc1C(=O)Nc1ccc([C@H]2[C@@H](O)CCCc3cncn32)c(-c2ccccc2)c1	BRD4-HiBiT cells	BRD4 degradation rescue, inhibitor		24 h, 50% degradation rescued, with: dBET6 500 nM		EC50	0.0482 µM
O=C(Nc1nnc2c1c(-c1ccc(Cl)cc1)nc1sc(=Cc3ccco3)c(=O)n12)c1ccccc1 (mixture of isomers)	UO-31	SRB		10 µM, NCI60 single-dose screen	reference: untreated	cell growth	29.6%
C#CCOC(=O)[C@@]1(C)C=C(C(=O)Nc2cccc(C(=O)Nc3ccc(C)c(Nc4nccc(-c5cccnc5)n4)c3)c2)C(=O)CC1	SH-SY5Y MKK7 ACT	western blot, refers to: c-Jun Ser73		0.03 µM, 6 h, unit not given, with: doxycycline	reference: doxycycline without inhibitor	phosphorylation	0.989
COc1cccc(OC)c1-c1cc(C(=O)NC2(C(=O)O)C3CC4CC(C3)CC2C4)nn1-c1ccc(C(=O)N(C)CCCN(C)C(=O)[C@H](CCCCNC(=O)[C@H](CC(C)C)NC(=O)C2OC2C(=O)O)NC(=O)CN2CCN(CC(=O)[O-])CCN(CC(=O)[O-])CCN(CC(=O)[O-])CC2)cc1C(C)C.[177Lu+3] (mixture of isomers)	HT-29			concentration not given, 30 min	reference: added activity	surface-bound fraction	2.17 ± 0.09%
Cc1c(Cl)cccc1Nc1ccccc1C(=O)[Se]CC(=O)Nc1cccc(C(F)(F)F)c1	NCI60 colon subpanel	NCI60 five-dose screen				GI50	2.58 µM
CN(C)CCN1CCN(c2ccc3nc(-c4ccc5nc(-c6ccc(C(F)(F)F)cc6)[nH]c5c4)[nH]c3c2)CC1	LOX IMVI	cell growth, NCI-60 SRB		10 µM, 48 h		growth percent	32.2%
CN(C)c1ccc(-n2cc(COC(=O)[C@]3(C)C=C(C(=O)OC(C)(C)C)C(=O)CC3)nn2)cc1	HeLa	quantitative western blot		concentration not given, 10 (unit not given), with: EGF		pRSK/tubulin ratio	0.176
Cc1c[nH]c2nccc(-c3ccc(C(=O)N[C@@H]4c5c(F)cc(C(F)F)cc5C[C@@H]4O)cn3)c12	NUAK2 (Homo sapiens, UniProt Q9H093)	binding, competition with immobilised ligand				Kd	0.026 µM
CCOc1cncc(-c2ccc(NC(=O)C3(c4ccnc(NS(=O)(=O)C5CC5)n4)CCOCC3)nc2)n1	OE21	cell proliferation, CellTiter-Glo		72 h, Oesophagus cancer		IC50	0.054 µM
CCN(C(=O)c1cc(F)ccc1Oc1nncnc1N1CCC2(C1)CN([C@H](CCCN(C)CCOC)C(C)C)C2)C(C)C	UMUC3	cell growth or viability		7 days		GI50	> 10 µM
Cn1c(=O)n(C2CCC(=O)NC2=O)c2ccc(C3CCN(CC(=O)Nc4cccc(CS(=O)(=O)N5CC[C@H](Nc6cccc(-c7sc(C(=O)O)c(OCC(=O)O)c7Cl)c6)CC5(C)C)c4)CC3)cc21 (some centres unmarked)	B16-F10	HTRF, refers to: phospho-STAT1 Tyr701		0.005 µM, with: IFN-γ	reference: min-max normalised	pSTAT1 level	3.28% and 4.36% and 4.23% and 4.65% and 4.26% and 4.49%
CC(C)COCCCCCN1C[C@H](O)[C@@H](O)[C@H](O)[C@H]1CO	Beta-glucosidase (GBA2, Homo sapiens, UniProt Q9HCG7)	inhibitor, 4MU-β-D-glucopyranoside	HEK293T homogenates overexpressing GBA2			IC50	0.0009 µM
NC(Cc1ccccc1)C(=O)N1CC(=Cc2ccc(Cl)c(Cl)c2)C(=O)C(=Cc2ccc(Cl)c(Cl)c2)C1 (centres unmarked)	BRD4-HiBiT cells	BRD4 degradation rescue, inhibitor		4 h, 50% degradation rescued, with: dBET6 500 nM		EC50	1.98 µM
O=C(O)C1OC(Oc2c(-c3ccc(O)cc3)oc3ccc(O)cc3c2=O)C(O)C(O)C1O (centres unmarked)	MDCKII-UGT1A1/MRP2 cells	glucuronide efflux, substrate				Jmax	8.2 ± 0.37 pmol/mg/min

Repeated from above:
SMILES	tested on	assay	system	setting	scale	endpoint	result
Cn1ncc2cc(-c3cncc(Cl)c3N3CCC4(CCNC4=O)CC3)ccc21	LS174T	gene expression, microarray, refers to: INHBB mRNA		concentration not given, 4 h	reference: untreated cells	log2 fold change	1.67
CCCC[C@H](NC(=O)CCCCCCCNC(=O)CN1CCN(CC(=O)O)CCN(CC(=O)O)CC1)C(=O)N[C@H]1CC(=O)NCCCC[C@@H](C(N)=O)NC(=O)[C@H](Cc2c[nH]c3ccccc23)NC(=O)[C@H](CCCNC(=N)N)NC(=O)[C@@H](Cc2ccccc2)NC(=O)[C@H](Cc2c[nH]cn2)NC1=O [technetium-99m labelled]			C57 mouse, pancreas	intravenous, 0.037 MBq, 24 h		tissue uptake	0.04 ± 0.03 %ID/g
CCOc1cncc(-c2ccc(NC(=O)C3(c4ccnc(NS(=O)(=O)C5CC5)n4)CCOCC3)nc2)n1	OE21	cell proliferation, CellTiter-Glo		72 h, Oesophagus cancer		IC50	0.054 µM
Cc1c(Cl)cccc1Nc1ccccc1C(=O)[Se]CC(=O)Nc1cccc(C(F)(F)F)c1	NCI60 colon subpanel	NCI60 five-dose screen				GI50	2.58 µM
NC(Cc1ccccc1)C(=O)N1CC(=Cc2ccc(Cl)c(Cl)c2)C(=O)C(=Cc2ccc(Cl)c(Cl)c2)C1 (centres unmarked)	BRD4-HiBiT cells	BRD4 degradation rescue, inhibitor		4 h, 50% degradation rescued, with: dBET6 500 nM		EC50	1.98 µM
Cc1ccc([N+](=O)[O-])cc1S(=O)(=O)N(C)/N=C/c1cnc2ccc(Br)cn12	NCI60	cytotoxicity, MTS				IC50	0.008 µM
